Literature values as cited in several papers.
± gives the spread as reported.
Organism: Plasmodium falciparum

COc1ccc2nc3cc(Cl)ccc3c(NCCN3CCN(C)CC3)c2c1 — inhibition (parasite development; Dd2; 2 µM): > 90%
O=C1C(O)=C([C@H]2CC[C@H](c3ccc(Cl)cc3)CC2)C(=O)c2ccccc21 — IC50: 1 nM
O=c1c(NCCCN(Cc2ccc(F)cc2)c2ccccn2)c(NCc2cccnc2)c1=O — inhibition (parasite development; Dd2; 2 µM): > 90%
CC(C)(C)OC(=O)N[C@H](Cc1ccccc1)[C@@H](O)CN1CCC(N2CCCCC2)CC1 — IC50 (parasite growth; 3D7; 48 h): 1160 nM
CNC(=O)[C@@H]1Cc2c([nH]c3ccccc23)[C@@H](c2ccc(Cl)cc2Cl)N1 — IC50 (parasite growth; Dd2): 190 ± 30 nM
COc1cc(O)c(-c2ccc(OC)c3c(O)cc(C)c(-c4cc(-c5c(O)cc(OC)c6c5C[C@H](C)N(C)[C@@H]6C)c5cc(C)cc(OC)c5c4O)c23)c2c1[C@@H](C)N(C)[C@H](C)C2 — IC50 (K1): 4 nM
O=C(/C=C/c1ccc(Cl)c(Cl)c1)N1CCC(CCN2CCC(c3c[nH]c4cnccc34)CC2)CC1 — inhibition (parasite development; Dd2; 2 µM): > 90%
CCCCCC(=O)N[C@H](CC(=O)N(CC)CC)C(=O)N[C@@H](Cc1ccc(F)cc1)C(=O)N[C@@H](Cc1ccc(F)cc1F)C(=O)[C@@]1(C)CO1 — IC50 (parasite killing): 9.2 ± 1.8 nM
NC(=O)[C@@H]1Cc2c([nH]c3ccccc23)[C@@H](c2ccc(Cl)cc2Cl)N1 — IC50 (parasite growth; Dd2): 1200 ± 100 nM
CCN(CC)S(=O)(=O)c1cc(/C=C/C(=O)Nc2cc(N3CCOCC3)ccc2Cl)ccc1C — EC50 (3D7): 1000 nM
CCN(CC)c1ccc2nc3c4ccccc4/c(=N/c4ccncc4)cc-3oc2c1 — IC50 (parasite growth; K1): 3 ng/mL
COC(=O)C1=CO[C@@H](C)[C@@H]2Cn3ccc4c5ccccc5nc-4c3C[C@H]12 — IC50 (W2; 72 h): 109 nM
